Measurements of several laboratories.
Lines come from different studies, so protocols differ. Several values in a cell are separate wells, animals, samples, runs or records. ± gives the spread as reported.
ALB: Albumin (ALB, Homo sapiens, UniProt P02768)
CYP2C19: Cytochrome P450 2C19 (CYP2C19, Homo sapiens, UniProt P33261)
uncharacterized protein: uncharacterized protein (Spodoptera exigua, UniProt F1CEY0)

SMILES | tested on | test | system | conditions | scale | measurement | result
COc1cc(-c2[o+]c3cc(O)cc(O)c3cc2O[C@@H]2O[C@H](CO)[C@@H](O)[C@H](O)[C@H]2O)ccc1O | ALB | binding, fluorescence quenching |  | 20 °C |  | Gibbs free energy | -5.84 kcal/mol
N[C@@H](Cc1ccc(O)cc1)C(=O)Nc1ccc2ccccc2c1 | Puromycin-sensitive aminopeptidase (Rattus norvegicus, UniProt F1M9V7) | substrate |  |  |  | Km | 9 µM
c1coc(-c2n[nH]cc2-c2ccnc3ccccc23)c1 | PKH3 (Candida albicans) | kinase binding, MIB/MS competition | Candida albicans lysate | 1 µM | reference: DMSO | log2 fold change | -0.24
C[C@H](CS)C(=O)N1CCC[C@H]1C(=O)O |  |  | male Hartley guinea pig, anaesthetized | intravenous, 3 mg/kg, baseline before infusion |  | QTc interval | 348 ± 0.9 ms
COc1ccc2[nH]c([S+]([O-])Cc3ncc(C)c(OC)c3C)nc2c1 (stereo not shown) | CYP2C19 |  | human, plasma | oral, 20 mg, Day 1, with: single dose encorafenib and binimetinib | reference: Day -7 | geometric LS mean ratio of AUClast | 1.26
N[C@H](CNC(=O)c1cc(Br)c(-c2ccccc2F)s1)C(=O)O | Glutamate receptor ionotropic, NMDA 1, with GluN2C (Grin1, Rattus norvegicus, UniProt P35439) |  |  | with: glutamate 300 µM |  | Hill slope | 1.29
Nc1nc2c(ncn2[C@@H]2O[C@H](COP(=O)(O)O)[C@@H](O)[C@H]2O)c(=O)[nH]1 | GUK1 (Homo sapiens, UniProt Q16774, E72A) | enzyme activity, NADH-coupled |  | 62.5 µM |  | reaction rate | -0.659 s⁻¹ and -0.142 s⁻¹ and 0.642 s⁻¹
N#Cc1ccn2c(-c3ccncc3)c(-c3ccc(F)cc3)nc2c1 | Carbon catabolite-derepressing protein kinase (SNF1, Candida albicans, UniProt P52497) | kinase binding, competitor, MIB/MS competition, refers to: SNF1 | Candida albicans cell lysate | 10 µM | reference: DMSO | log2 fold change | 0.0847
O=C(c1ccc(I)cc1)N1CCC(n2cncc2-c2ccc(OS(=O)(=O)c3cccc4cnccc34)cc2)CC1 | P2X purinoceptor 7 (P2RX7, Homo sapiens, UniProt Q99572) | ATP-gated current | HEK293 stably expressing P2RX7 | 300 nM |  | inhibition duration after washout | ≥ 25 min
Cc1cc(O)cc(C)c1C[C@H](NC(=O)[C@@H]1CCCN1C(=O)[C@H](CCCNC(=N)N)NC(=O)[C@H](CCCNC(=N)N)N(C)C(=O)[C@@H](CCC(N)=O)NC(=O)[C@@H](CCC(N)=O)NC(=O)[C@@H](CCC(N)=O)NC(=O)[C@H](Cc1cn(CCNC(=O)[C@H](CC(C)C)NC(=O)[C@H](CC(C)C)NC(=O)C2OC2C(=O)O)nn1)NC(=O)CN1CCN(CC(=O)O)CCN(CC(=O)O)CCN(CC(=O)O)CC1)C(=O)N[C@H](C(=O)N[C@@H](CC(C)C)C(=O)O)C(C)(C)C (mixture of isomers) |  |  | human |  |  | fraction unbound | 0.927
CCCCCCCCCCCCCCCCCCc1ccc(O)cc1 | ALB | van't Hoff analysis |  | concentration not given, 310.15 K |  | binding entropy change | -35.1 J/mol/K
CC[C@@H]1[C@H](F)C(=O)N[C@@H]1COc1nccc2cc(C(N)=O)c(OC)cc12 | MAPK7 (Homo sapiens, UniProt Q13164) | ATP-site probe binding, ActivX profiling, refers to: Erk5 | THP-1 cell lysate | 0.2 mM, Lys2 site |  | inhibition | -8.8%
COc1ccc2nc([S+]([O-])Cc3ncc(CO)c(OC)c3C)[nH]c2c1 (stereo not shown) | CYP2C19 | substrate | human, plasma | oral, 20 mg, day 1, cocktail with binimetinib and encorafenib |  | AUC(0-t) | 302 ng·h/mL
C[C@]12CC[C@@H]3c4ccc(O)cc4C[C@@H](CCCCCCCCC[S+]([O-])CCCC(F)(F)C(F)(F)F)[C@H]3[C@@H]1CC[C@@H]2O (stereo partly shown) | LCC2 tamoxifen-resistant | CCK-8 |  | 400 nM | reference: untreated | viability | 88.7% and 84.3% and 93.3%
CC1(F)CN(C(=O)Cn2c(=O)c(C(=O)NCc3ccc(Cl)cc3)cc3nc(N4CCN(CC(=O)O)C4=O)cnc32)C1 | DNA polymerase catalytic subunit (Human cytomegalovirus, UniProt P08546) | enzyme activity, inhibitor |  | retest |  | Hill slope | 1.1
[O-][S+]1CCCCS1 (stereo not shown) | SOD1 (Homo sapiens, UniProt P00441, G94A) | intact protein LC-MS | SOD1 G93A transgenic mice, whole blood | intravenous, 10 mg/kg, 168 h |  | target engagement | 4.52% and 6%
C1CCCC1.C1CCCC1.[Cl][W][Cl] | ALB | binding, fluorescence quenching |  | 288 K |  | Gibbs free energy change | -4.75 kcal/mol
NC/C(=C\F)COc1cccc(Cn2c(=S)[nH]c(=O)c3[nH]cnc32)c1 | Amine oxidase copper-containing 3 (Canis lupus familiaris, UniProt A0A8I3MYY3) | inhibitor | dog adipose tissue | 0.0005 µM |  | inhibition | 14.1%
Cn1cc(-c2ccc(-c3cncc(Cl)c3N3CCC4(CCNC4=O)CC3)cc2)cn1 | COLO 205 | gene expression, microarray, refers to: CAPG mRNA |  | concentration not given, 6 h | reference: untreated cells | log2 fold change | 2.03
COc1c(N2C[C@@H]3CCCN[C@@H]3C2)c(F)cc2c(=O)c(C(=O)O)cn(C3CC3)c12 |  |  | male Hartley guinea pig, anaesthetized | intravenous, 1 mg/kg, baseline before infusion |  | QTc interval | 302 ± 0.6 ms
CCCCCCCCCOC(C)=O | uncharacterized protein | binding, competitor, fluorescence displacement |  | 20 µM, pH 7.4, with: 1-NPN 20 µM | reference: 1-NPN alone | relative fluorescence | 42.8%
COCCC(=O)N1CCC(Oc2ccccc2)C1 (stereo not shown) | DNA mismatch repair protein Msh6 (Homo sapiens, UniProt P52701) | binding, affinity selection mass spectrometry |  |  | reference: other proteins in batch | log fold enrichment | 0.168

SMILES | tested on | test | system | conditions | scale | measurement | result
C=C1[C@H]2CC[C@H](C2)C1(C)C | uncharacterized protein | binding, competitor, fluorescence displacement |  | 20 µM, pH 7.4, with: 1-NPN 20 µM | reference: 1-NPN alone | relative fluorescence | 76.5%
CC(C)n1ncc2c(C(=O)NCC3(C)CNC3)cc(C3CC3)nc21 | enterovirus A71 |  | Tainan/4643/1998 | 0.003 µM |  | plaque area | 93.8% and 97.8%
CCCC[C@@H]1NC(=O)[C@H]([C@@H](C)CC)NC(=O)[C@H](Cc2ccc(O)cc2)NC(=O)[C@H](CC(C)C)NC(=O)[C@@H]2CCCN2C(=O)[C@@H](NC(=O)[C@H](CCCNC(=N)N)NC(=O)[C@H](CCCNC(=N)N)NC(C)=O)CSSC[C@@H](C(=O)N[C@@H](CCCNC(=N)N)C(=O)N[C@@H](CCCNC(=N)N)C(N)=O)NC(=O)[C@H](C(C)C)NC(=O)[C@@H]2CCCN2C(=O)[C@H](CC(=O)O)NC(=O)[C@H](Cc2ccc(O)cc2)NC1=O | GTPase KRas, GDP-bound (KRAS, Homo sapiens, UniProt P01116, G12D) | affinity selection mass spectrometry |  | mixture library 2, with: protein titration up to 5 µM | lower is stronger binding | lowest bound protein concentration | 1.25 µM
C#Cc1c(F)ccc2cc(O)cc(-c3ncc4c(N5CC6CCC(C5)N6)nc(OC[C@@]56CCCN5C[C@H](F)C6)nc4c3F)c12 | GTPase KRas, GDP-bound (KRAS, Homo sapiens, UniProt P01116, G13D) | SPR |  |  |  | dissociation rate constant koff | 0.000375 ± 7.7e-05 s⁻¹
CC(C)=CCCC(C)CCO (stereo not shown) | uncharacterized protein | binding, 1-NPN competitive displacement |  | protein 2.0 µM, with: 1-NPN 20 µM | reference: 1-NPN without compound, lower = stronger binding | relative fluorescence | 70.4%
C=CC(=O)N1CCC(COCC(=O)N2CCN(c3nc(-c4cnc(N)nc4C(F)F)nc(N4CCOC[C@@H]4C)n3)CC2)CC1 | PRKD2 (Homo sapiens, UniProt Q9BZL6) | KINOMEscan |  | 1 µM |  | remaining binding | 94%
O=c1nc(SCc2cc(F)cc(C(F)(F)F)c2)nc(SCc2csc3ccc(Cl)cc23)[nH]1 | TOP2A (Homo sapiens, UniProt P11388) | DNA cleavage |  | 1.95 µM |  | mean linear DNA | 0%
COc1ccc(F)cc1C(=O)NCc1ccc(-c2nn([C@@H](C)C(F)(F)F)c(N)c2C(N)=O)cc1 | BTK (Homo sapiens, UniProt Q06187) | competitive chemoproteomics | live PBMCs | 0.1 µM |  | probe binding reduction | 90%
O=C(O)CNC(=O)Cc1ccccc1 |  |  | ventricular cardiomyocytes, C57BL/6 mouse | dose not given, 0.384 s |  | sarcomere length | 1.72 µm
CC(C)C[C@H](NC(=O)C[C@H](O)[C@H](CC(C)C)NC(=O)[C@H](Cc1c[nH]cn1)NC(=O)CNC(=O)[C@@H](NC(=O)[C@H](C)NC(=O)[C@H](Cc1c[nH]c2ccccc12)NC(=O)[C@H](CCC(N)=O)NC(=O)[C@@H](Cc1ccccc1)NC(=O)COCCOCCNC(=O)CCC(C(=O)O)N1CCN(CC(=O)O)CCN(CC(=O)O)CCN(CC(=O)O)CC1)C(C)C)C(N)=O (stereo partly shown) [lutetium-177 labelled] |  |  | BALB/c nu/nu mice, liver | intravenous, 50 pmol, 1 h, with: PA 300 µg |  | tissue uptake | 0.46 ± 0.08 %ID/g
c1ccc(C(NCc2cccnc2)(c2ccccc2)c2ccccc2)cc1 | KCNQ1 (Homo sapiens, UniProt P51787) | whole-cell patch clamp |  | 300 pM |  | current decay | 55 ± 12%
N[C@H](CNC(=O)c1ccc(-c2ccccc2)s1)C(=O)O | Glutamate receptor ionotropic, NMDA 1, with GluN2D (Grin1, Rattus norvegicus, UniProt P35439) |  |  | with: glutamate 300 µM |  | Hill slope | 2.45
CC(=O)N[C@H]1[C@@H](OP(=O)(O)OP(=O)(O)OC[C@H]2O[C@@H](n3ccc(=O)[nH]c3=O)[C@H](O)[C@@H]2O)O[C@H](CO)[C@@H](O)[C@@H]1O | Bacillus thuringiensis ThuS | substrate |  | sugar donor |  | Km | < 10 µM
CC(=O)N[C@H](C(=O)N1C[C@H](O)C[C@H]1C(=O)NCc1ccc(-c2scnc2C)cc1)C(C)(C)SCCCCCCNC(=O)C[C@@H]1N=C(c2ccc(Cl)cc2)c2c(sc(C)c2C)-n2c(C)nnc21 | BRD2/VHL, BD1; with VCB (Homo sapiens, UniProt P25440+P40337, K107A/Q101K/V106E) | ITC |  | 25 °C, BRD2 BD1 KEA mutant, ternary |  | −TΔS | -5 ± 1 kcal/mol
COc1cccc(CNc2nc3ccc(C)cc3n3cnnc23)c1 | ADORA2A (Homo sapiens, UniProt P29274) | binding, radioligand competition |  | 30 µM, with: [3H]ZM241385 |  | displacement | 37 ± 1%
O=C(O)c1ccc(Nc2ncc3c(n2)-c2ccc(Cl)cc2C(c2c(F)cccc2F)=NC3)cc1 | MINK(h) | kinase activity |  | 1 µM |  | remaining activity | 104%
O=C(COP(=O)(O)O)[C@@H](O)[C@H](O)[C@H](O)COP(=O)(O)O | PRPF8 (Homo sapiens, UniProt Q6P2Q9) | thermal proteome profiling | HepG2 cell lysate | concentration not given, 57 over 37 °C | reference: compound over control | thermal stability ratio | 0.7 and 0.538 and 0.389
Cc1cc(-c2ccnc3[nH]cc(F)c23)cc(F)c1[C@@]1(O)[C@H](C)CN(C2CCS(=O)(=O)CC2)C[C@@H]1C | JAK1 (Homo sapiens, UniProt P23458) | ATP/ADP probe binding, KiNativ | HEK293T lysate | 0.1 µM, activation loop domain 2 |  | probe labelling inhibition | 10.1%
NCCCCC(=O)O | SLC6A6 (Homo sapiens, UniProt P31641, G62A) | binding, microscale thermophoresis |  | 15.6 µM, room temperature, with: 50 nM labelled protein | higher = more binding | normalised MST signal | 0.0329
Nc1ncnc2c1ncn2[C@@H]1O[C@H](COP(=O)(O)CP(=O)(O)OP(=O)(O)O)[C@@H](O)[C@H]1O | P2X purinoceptor 1 (P2RX1, Homo sapiens, UniProt P51575) | saturation binding | HEK293 | 1 nM |  | specific binding | 368 CCPM and 360 CCPM and 151 CCPM and 233 CCPM and 293 CCPM
C[C@@H](O)[C@@H](CO)NC(=O)[C@@H](CCCNC(=N)N)NC(=O)[C@@H]1CCCN1C(=O)[C@@H]1CSSC[C@H](NC(=O)[C@H](Cc2ccccc2)NC(=O)CN2CCN(CC(=O)O)CCN(CC(=O)O)CCN(CC(=O)O)CC2)C(=O)N[C@@H](Cc2ccc(O)cc2)C(=O)N[C@@H](Cc2ccccc2)C(=O)N[C@@H](CCC(N)=O)C(=O)N[C@@H](CC(N)=O)C(=O)N1 [gallium-68 labelled] |  |  | normal saline | 2 h, room temperature |  | radiochemical purity | > 99%

Some of these lines once more:
SMILES | tested on | test | system | conditions | scale | measurement | result
O=C(O)CNC(=O)Cc1ccccc1 |  |  | ventricular cardiomyocytes, C57BL/6 mouse | dose not given, 0.384 s |  | sarcomere length | 1.72 µm
CC(C)C[C@H](NC(=O)C[C@H](O)[C@H](CC(C)C)NC(=O)[C@H](Cc1c[nH]cn1)NC(=O)CNC(=O)[C@@H](NC(=O)[C@H](C)NC(=O)[C@H](Cc1c[nH]c2ccccc12)NC(=O)[C@H](CCC(N)=O)NC(=O)[C@@H](Cc1ccccc1)NC(=O)COCCOCCNC(=O)CCC(C(=O)O)N1CCN(CC(=O)O)CCN(CC(=O)O)CCN(CC(=O)O)CC1)C(C)C)C(N)=O (stereo partly shown) [lutetium-177 labelled] |  |  | BALB/c nu/nu mice, liver | intravenous, 50 pmol, 1 h, with: PA 300 µg |  | tissue uptake | 0.46 ± 0.08 %ID/g
